Assay results collected from several papers.
Compare with care: the assays were run in different laboratories. Numbers after ± are the reported error.
Cell line: human neutrophils

COc1cccc(Cc2cc(C)nn([C@H](C)C(=O)Nc3ccc(Br)cc3)c2=O)c1 — EC50 (calcium mobilization, agonist): 1400 nM
CC1=NN(CC(=O)Nc2ccc(Br)cc2)C(=O)CC1c1ccccc1 (racemic) — EC50 (calcium mobilization, agonist): 1400 ± 380 nM
C[C@H](CCC(=O)O)[C@H]1CC[C@H]2[C@@H]3[C@H](O)C[C@@H]4C[C@H](O)CC[C@]4(C)[C@H]3CC[C@]12C — IC50 (calcium mobilization; 30 min, with: fMLF 5 nM): 21400 ± 1600 nM
CC1=NN(CC(=O)Nc2ccc(Br)cc2)C(=O)CC1C (racemic) — EC50 (calcium mobilization, agonist): 13000 ± 1800 nM
CCC[C@H](C(=O)Nc1ccc(Br)cc1)n1nc(C)cc(Cc2cccc(OC)c2)c1=O — EC50 (calcium mobilization, agonist): 930 nM
C[C@@](Cc1c[nH]c2ccccc12)(NC(=O)Nc1ccc([N+](=O)[O-])cc1)C(=O)NCC1(c2ccccn2)CCCCC1 — EC50 (calcium mobilisation, agonist; with: 2.5 mM probenecid): 190 ± 70 nM
(+)-episesamin — EC50 (calcium flux, agonist): 38100 ± 4200 nM
COc1cccc(-c2cc(=O)c3ccccc3o2)c1N — ERK1/2 phosphorylation (inhibitor, Western blot; 50 µM, 20 min pretreatment, with: plasminogen 1 µM): inhibited
Cc1nn(CC(=O)Nc2ccc(Br)cc2)c(=O)cc1-c1ccccc1 — EC50 (chemotaxis, agonist; 1 h): 2100 ± 530 nM
CC1(C)CC[C@]2(C(=O)O)CC[C@]3(C)C(=CC[C@@H]4[C@@]5(C)CC[C@H](O)C(C)(C)[C@@H]5CC[C@]43C)[C@@H]2C1 — IC50 (calcium flux, inhibitor; with: fMLF): 1500 nM
Cc1nn(CC(=O)Nc2ccc(Br)cc2)c(=O)c(N)c1-c1cc[nH]n1 — EC50 (calcium flux, agonist): 11800 ± 2400 nM
COc1ccc(C2(CNC(=O)[C@](C)(Cc3c[nH]c4ccccc34)NC(=O)Nc3ccc([N+](=O)[O-])cc3)CCCCC2)nc1 — EC50 (calcium mobilisation, agonist; without probenecid): 720 ± 210 nM
CC(C)=CCOc1c2occc2cc2ccc(=O)oc12 — IC50 (calcium mobilization; 30 min, with: fMLF 5 nM): 31200 ± 2800 nM

For quick reference, copied from above:
COc1cccc(Cc2cc(C)nn([C@H](C)C(=O)Nc3ccc(Br)cc3)c2=O)c1 — EC50 (calcium mobilization, agonist): 1400 nM
Cc1nn(CC(=O)Nc2ccc(Br)cc2)c(=O)cc1-c1ccccc1 — EC50 (chemotaxis, agonist; 1 h): 2100 ± 530 nM
